# Results gathered from unrelated publications.
# Numbers after ± are the reported error.
Structure (SMILES),cell line,test,setting,IC50
Cc1cc(C=O)cc(C)c1Oc1cc(Nc2ccc(C#N)cn2)nc2ccncc12,MOLT-3,,48 h,17.4 ± 3.8 µM
CC(C)=CCC1=C([O-])C(=O)c2ccccc2C1=O.CC(C)=CCC1=C([O-])C(=O)c2ccccc2C1=O.Cc1cc2cccnc2c2ncccc12.[Cu+2],MRC5 normal fibroblasts,"cell viability, MTT",24 h,3 ± 0.1 µM
[Cl][Pd-]1([Cl])[S]C(Nc2ccccc2)=N[N+]1=Cc1ccc(-c2ccccc2)s1,CEM human lymphocytes,cell proliferation,,168 µM
CC(=O)Oc1ccccc1C(=O)[O][Pt]([NH2])([NH2])([Cl])([Cl])[O]C(=O)CCCc1ccccc1,C13 cisplatin-resistant,"cytotoxicity, MTT",72 h,0.43 ± 0.12 µM
CC1(C)CCC(CN2CCN(c3ccc(C(=O)NS(=O)(=O)c4ccc(NCC5COCCO5)c([N+](=O)[O-])c4)c(N4CCCOc5nc6[nH]ccc6cc54)c3)CC2)=C(c2ccc(Cl)cc2)C1 (stereo not drawn),OSU-CLL BCL2 knockout,"cell viability, CellTiter-Glo",72 h,0.0295 µM
C=CCc1ccc(OC(C)=O)c(OC)c1,RT-112,MTT,24 h,> 50 µM
O=C1C(Br)=C(Br)C(=O)c2ccccc21,MOLT-3,"cell growth or viability, XTT",48 h,3.29 µM
[Cl][Au+][Cl].[O-][Cl+3]([O-])([O-])[O-].c1ccc(P(=NCc2ccccn2)(c2ccccc2)c2ccccc2)cc1,A2780cisR (cisplatin-resistant),"cell growth, MTT","74 h, 1% DMSO",8 ± 2.4 µM
CCCCCCCCCCCCCCCCCCCC(=O)N[C@@H](CCCCN)C(=O)N[C@@H](CCCCN)C(=O)N[C@@H](CCCCN)C(=O)N[C@@H](CCCCN)C(=O)N[C@@H](CCCCN)C(N)=O,HCEC,cytotoxicity,,22.5 µg/mL
Cc1ccc2oc(-c3c4c(N)n[nH]c(=O)c4nn3-c3ccccc3)c(C)c2c1,SNU-16,cell growth or viability,,> 1 µM
C=C(C)C(=O)Nc1ccc(-c2c(C#Cc3cc(OC)cc(OC)c3)c3c(N)ncnc3n2C)cc1,SNU-16,"cell growth or viability, ATP luminescence",96 h,0.088 µM
NCCCCCCN1N=C(c2ccc(NC(=O)N3Cc4ccncc4C3)cc2)CC(c2cccc3ncccc23)C1=O (stereo not drawn),A549-C4.4a,"cell viability, CellTiter-Glo",,0.012 µM
NS(=O)(=O)c1ccc(NC(=O)NN[C@@H]2O[C@H](CO)[C@@H](O)[C@H](O)[C@@H]2O)cc1,HCEC,"cell growth or viability, MTT",96 h,> 100 µM
Clc1ccc(C=[N+]2N=C(Nc3ccccc3)[S][Pd-]2([Cl])[Cl])s1,CRFK,cell growth or viability,,> 100 µM
CCn1cc[n+](CC)c1,RC-124 kidney epithelial,"cell proliferation, crystal violet staining",96 h,> 100 µM
COC(=O)[C@@]1(C)C=C(C(=O)Nc2cccc(C(=O)Nc3ccc(Nc4nccc(-c5cccnc5)n4)c(C)c3)c2)C(=O)CC1,SH-SY5Y MKK7-ACT,"c-Jun phosphorylation, inhibitor, western blot, refers to: phospho-c-Jun Ser73","6 h, with: doxycycline",0.66 ± 0.1 µM
C=CC(=O)N1CCC(c2c(-c3ccc(OC)cc3)c3c(N)ncnc3n2C)C1 (stereo not drawn),SNU-16,"cell growth or viability, ATP luminescence",96 h,0.15 µM
S=c1n(-c2ccccc2)c2c3ccccc3nc3[n+]2[n]1[Ir-3]12([S]3)([c]3cccc4ccc5ccc[n+]1c5c34)[c]1cccc3ccc4ccc[n+]2c4c13,MRC9,"cell viability, MTT","irradiation 450 nm, 15.5 mW/cm^2, 15 min",> 50 µM
Cc1ccc(S(=O)(=O)c2c(-c3ccccc3)c3c(C)c4ccccc4n3c3ccccc23)cc1,LS174T,"cell growth or viability, MTT",72 h,> 100 µM
OC(CN1CCNCC1)Cn1c2ccc(Br)cc2c2cc(Br)ccc21 (stereo not drawn),wild-type MEF,"caspase-3/7 activation, inhibitor","8 h, with: TNFα + cycloheximide",1.8 µM
O=C1CCC(N2C(=O)c3ccc(N4CCC(C(=O)N5CCC(CCN6CCC(CNC(=O)c7cccc(-c8noc(C(F)(F)F)n8)c7)(c7nc(-c8ccccc8)cs7)CC6)CC5)CC4)cc3C2=O)C(=O)N1 (stereo not drawn),DHL6,"cell proliferation, CCK-8",120 h,1 µM
COc1ccc(/C=C/C2=[N+]3C(=C(CO)c4c(C)cc(/C=C/c5ccc(OC)cc5)n4[B-]3(F)F)C(C)=C2)cc1,RPE-1,"cell growth or viability, resazurin",dark,> 100 µM
CCn1[c]([Au-][Cl])[n+](CC)c2ccc(C(=O)OC)cc21,RC-124 kidney epithelial,"cell proliferation, crystal violet staining",96 h,7.2 ± 3.7 µM
Cc1ccc(NC(=O)c2c(C)oc3ccc(O)c(CN4CCCCCC4)c23)cc1,KMS-27,"cell growth or viability, MTS",72 h,9.6 µM
C=CC(OC(C)=O)c1ccccc1 (stereo not drawn),EJ-28,MTT,24 h,> 50 µM
CC1(C)Cc2c(-c3ccccc3)c(-c3ccc(Cl)cc3)c(CC(=O)NCC(=O)O)n2C1,mouse peritoneal macrophages,LTB4 production,with: LPS,1.24 µM
CN1CCC2(CC1)C/C(=N\NC(=O)Nc1ccc([N+](=O)[O-])cc1)c1ccccc1O2,"MCF7, HCT-116, PC-3","cell growth, MTT",range over cell lines,10.8 to 20.7 µM
CC(=O)N[C@H]1C(n2cc([C@@](C)(O)c3cccc(F)c3)nn2)O[C@H](COCc2ccccc2)[C@H](OCc2ccccc2)[C@@H]1OCc1ccccc1 (stereo partly drawn),JEG-3,"cell growth or viability, MTS",72 h,38.1 µM
[Cl][Pd-2]1([Cl])[N+](=P(c2ccccc2)(c2ccccc2)c2ccccc2)Cc2cccc[n+]21,A2780cisR (cisplatin-resistant),"cell growth, MTT","74 h, 1% DMSO",6.2 ± 0.3 µM
CC(=O)c1cnc(N)nc1N1CC[C@H]1c1nn2ccc(Cl)c2c(=O)n1-c1ccccc1,human CD4 T cells,"Treg differentiation, refers to: IL-10",,0.13 µM
CC(C)c1cccc(C(C)C)c1-n1c2c([n+](-c3c(C(C)C)cccc3C(C)C)[c]1[Au-][Cl])-c1cccc3cccc-2c13,C13 cisplatin-resistant,"cell viability, MTT",72 h,18 ± 2 µM
CN1CCN(c2ccc(Nc3ncc(Cl)c(Nc4ccccc4NS(=O)(=O)C4CC4)n3)cc2)CC1,Ba/F3 EGFR 19del/T790M/C797S,"cell growth, CCK-8",48 h,0.025 µM
CC(C)c1cccc(C(C)C)c1-n1ccn(-c2c(C(C)C)cccc2C(C)C)c1=[Se].[Cl][Au],LoVo MDR,MTT,72 h,3.9 ± 1.1 µM
C=CC(OC(C)=O)c1ccc(OC(C)=O)c(OC)c1 (stereo not drawn),RT-112,"cell growth or viability, MTT",24 h,10.9 µM
C=C1C(=O)[C@@]23CC[C@@H]4C(C)(C)CCC[C@@]4(CO)[C@@H]2[C@@H](O)C[C@@H]1C3,786-0,"cell growth or viability, MTT",,> 20 µM
CCCCCCCCC=CCCCCCCCC(=O)OCC1OC(n2ccc(N)nc2=O)C(F)(F)C1O (stereo not drawn),MOLT-4/C8,cell growth,with: dipyridamole 4 µg/mL,0.098 ± 0.03 µM
O=[N+]([O-])c1ccc(C=[N+]2N=C(Nc3ccccc3)[S][Pd-]2([Cl])[Cl])s1,CRFK,cell growth or viability,,39.1 µM
CN1CCCNC(=O)c2cccc(c2)C(=O)NCCCN(C)CCCNc2cccc3c2C(=O)c2cccc(c2C3=O)NCCC1,cancer cell lines,cell proliferation,general range,< 1 µM
CNC(=O)C1CCN(c2cc(C)c(F)cc2NC(=O)c2ccc(-c3cc(O)ccc3C)c(C)c2)CC1,12Z,refers to: PTGS2 mRNA,"3 h, 30 min pretreatment, with: IL-1β 0.05 ng/mL",7.2 µM
Cc1c(C)c(C)[c-](C)c1C.Cc1ccnc(-c2[c-]cccc2)c1.[Cl-].[Ir+3],A2780 cells,"cell growth, SRB","24 h exposure, 72 h recovery",3.9 ± 0.2 µM
CC1(C)[C@@H](O)CC[C@]2(C)[C@H]3C(=O)C=C4[C@@H]5C[C@@](C)(C(=O)O)CC[C@]5(C)CC[C@@]4(C)[C@]3(C)CC[C@@H]12,KARPAS-299,"cell growth or viability, MTT",,> 40 µM
CC(C)=CCc1c(-c2cc(O)c(O)cc2O)oc2c(CC=C(C)C)c(O)cc(O)c2c1=O,SAS,"cell growth or viability, MTT",72 h,50 µM
CCCCCCCCCCCCN(CCCCCCCCCCCC)C1=[S+][Au-2]2([S]1)[c]1ccccc1-c1cccc[n+]12.F[P-](F)(F)(F)(F)F (stereo not drawn),BT-333 glioblastoma,MTT,72 h,17.8 µM
Cc1c(C)c(C)[c-](C)c1C.O=[N+]([O-])c1ccnc(-c2[c-]cccc2)c1.[Cl-].[Ir+3],A2780 cells,"cell growth, SRB","24 h exposure, 72 h recovery",2.7 ± 0.1 µM
Oc1ccc(-c2csc(Cc3ccccc3)n2)c(O)c1,HEK293T,"cell growth, PrestoBlue",72 h,49.9 µM
Cc1cc(C#N)cc(C)c1Oc1cc(Nc2ccc(C#N)cc2)nc2cnccc12,MOLT-3,,48 h,> 128 µM
CC1=C2[O][Ru-]([Cl])[O+]=C2C=CN1CCCCCCN1C=CC2=[O+][Ru-]([Cl])[O]C2=C1C.Cc1ccc(C(C)C)cc1.Cc1ccc(C(C)C)cc1,DAN-G,"cell growth or viability, crystal violet",96 h,> 20 µM
O=C(Cc1ccc2ccccc2c1)N[C@H](Cc1ccccc1)C(=O)N[C@H](Cc1ccc(O)cc1)C(=O)N[C@H](Cc1ccccc1)C(=O)N[C@H](Cc1ccc(OP(=O)(O)O)cc1)C(=O)O,A2780cis,"cell growth or viability, MTT",,212 µg/mL
CCn1nc(Cl)c2c1-c1cnc(N)c(c1)O[C@H](C)c1cc(F)ccc1-c1nn(C)cc1C2,ALK-driven cell lines,cell viability,range over lines,0.002 to 0.019 µM
CCCCOc1nc(N)c2[nH]c(=O)n(CCCN(CCCN3CCOCC3)Cc3cccc(CC(=O)O)c3)c2n1,human PBMC,IL-5 release,"7 d, with: Der p 1",1.58 µM
COc1ccc(/C=C/C2=[N+]3C(=C(CO)c4c(C)cc(/C=C/c5ccc(OC)cc5)n4[B-]3(F)F)C(C)=C2C=O)cc1,RPE-1,"phototoxicity, resazurin","with: 645 nm light, 9.00 J/cm2",3.8 ± 0.5 µM
